Measurements from different studies.
Parts stem from different laboratories: compare values within a part only. Substitutions count along the parent as printed.

Series 1
Target: Sal-like protein 4, full length isoform A (SALL4, Homo sapiens, UniProt Q9UJQ4, residues 1-1053)
Chain of UniProt Q9UJQ4 (whole entry, looked up): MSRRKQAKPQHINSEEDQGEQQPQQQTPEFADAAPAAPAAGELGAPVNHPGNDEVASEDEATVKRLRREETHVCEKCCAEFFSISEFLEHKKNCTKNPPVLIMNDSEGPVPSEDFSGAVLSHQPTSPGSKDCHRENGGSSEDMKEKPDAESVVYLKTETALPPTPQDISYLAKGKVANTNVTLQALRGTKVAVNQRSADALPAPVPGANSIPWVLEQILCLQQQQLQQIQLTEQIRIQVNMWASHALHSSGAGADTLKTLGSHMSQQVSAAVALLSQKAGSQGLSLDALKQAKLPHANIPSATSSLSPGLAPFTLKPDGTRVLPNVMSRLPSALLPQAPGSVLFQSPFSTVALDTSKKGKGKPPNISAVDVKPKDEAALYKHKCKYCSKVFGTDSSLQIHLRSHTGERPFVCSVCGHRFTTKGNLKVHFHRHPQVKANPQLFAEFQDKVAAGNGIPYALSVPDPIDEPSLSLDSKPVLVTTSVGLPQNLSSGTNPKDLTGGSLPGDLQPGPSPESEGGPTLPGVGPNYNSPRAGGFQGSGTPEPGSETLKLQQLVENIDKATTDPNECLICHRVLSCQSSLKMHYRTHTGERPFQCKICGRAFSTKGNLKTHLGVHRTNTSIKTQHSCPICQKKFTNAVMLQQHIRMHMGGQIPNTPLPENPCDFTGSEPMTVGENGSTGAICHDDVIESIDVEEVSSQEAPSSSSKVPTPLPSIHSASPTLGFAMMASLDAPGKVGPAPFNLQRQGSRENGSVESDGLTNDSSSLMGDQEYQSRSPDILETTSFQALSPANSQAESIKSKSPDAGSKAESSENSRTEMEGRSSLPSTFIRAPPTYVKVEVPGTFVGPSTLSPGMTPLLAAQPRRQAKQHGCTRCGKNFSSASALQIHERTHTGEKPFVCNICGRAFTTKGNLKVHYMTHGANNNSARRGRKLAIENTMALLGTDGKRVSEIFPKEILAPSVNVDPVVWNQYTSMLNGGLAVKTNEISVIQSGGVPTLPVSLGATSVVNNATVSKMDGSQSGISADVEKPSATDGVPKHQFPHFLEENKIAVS
Method: universal PBM
Molecule type: double-stranded DNA, one strand shown
Matrix: in vitro
Concentration: 600 nM
Setting: 8-mer, flanks averaged, mean of replicates
Direction: higher = stronger binding
Quantity: E-score
TAGTCCAA: 0.0259
AATCGCCT: -0.0825
AGCCAACG: -0.0267
AATACTGC: 0.117
ACTTCACC: -0.0123
ACGGTTAA: 0.178
AGAGCTAC: -0.0542
ACATCTCT: -0.0181
CAGAAAGG: -0.0827
CGTTTAAA: 0.178
TAGTGAAA: 0.179
CTCTGCGA: -0.116
AAACATCG: -0.0426
CCGGGATC: -0.327
AGTGGATA: 0.0405
CATTGGAG: -0.0235
ACTGACAG: 0.0414
TGCGCTAA: 0.0693
CTGACAAG: 0.147
GACTTGGA: -0.146

Series 2
Target: RNA binding protein fox-1 homolog 2, RRM domain, GST-SBP tag (RBFOX2, Homo sapiens, UniProt O43251-10, residues 100-194)
Method: RNA Bind-n-Seq
Molecule type: RNA
Matrix: in vitro
Concentration: 365 nM
Setting: natural RNA segment, single round, ends assumed
Baseline: no-protein control
Direction: higher = stronger binding
Quantity: RBNS enrichment (R)
All sequences stand within: GGGAGUUCUACAGUCCGACGAUC … UGGAAUUCUCGGGUGCCAA
Target sequence (chain): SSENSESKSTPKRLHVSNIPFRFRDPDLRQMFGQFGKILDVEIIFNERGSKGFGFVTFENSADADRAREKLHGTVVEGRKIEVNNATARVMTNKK
CCUUGGCCUGAGAGGCAGCCAAGGACUAGAGGGGGAAGGAUAUCCCCCAAGUUCCCUCAGAGGCUUUUCCCAGCAGGUACCCCAUUCUGGGUAUCUGUCUGGUUCUAUUU: 0.275
GCUUGACUAACAGUCGAGGCAGUGAACUGGGUGUAGAAAGCGUCAGGAAAUGGCCACAUGUGUGGAUGGUUUAAUUAGAUUCUGUGGAGUCUCACAGUGGGAUUGUGGUU: 1.25
CACGGGGAGGUUUGUUUGUGUGAAAGGAAAGUAGUCCAGGCUGUCCCUGAAACUGAGUCUGUGGACACUGUGGAAAGCUUUGAACAAUUGUGUUUUCGUCACAGGAGUCU: 1.75
GUUUUUAGAGAGAUGGGUCUCUCUGAGGAGGUCUGUCUCCCUGCUGUACAAUGCCUUUUAAACCUUCCCCUUUUUCCAUACUUCCCAUAGGGCAUUUGUAGAAUUAGUGA: 0.844
UCGUGUCUGCCUGCGGGCUCCUGAGGGUCCACAGCUGAGCUGAUCCAUCUUUCCCUCAAGUGACCGUAUCUAGUGACAGGAAGGGAGAACCCUACAGUAGAUCCCUCUGC: 0.262
UUUCUGAUUUAAAUUAGCUCCUUGUGUCCUUGCUUUAUCUUUGGGGCAUCUUUAGUUCCAAGAACUGGAAGCCAGAGCUGCAGGCUCCUCCCACCUCUCUCCAGGCUGGU: 1.37
CUGGCUCCAUGAUUCUCUGAGUGGUGGUUCCUUUGCACCCUGUAGAUGUUCUAGGAUAGUUGAUGCAUGUUACUAAAUUACGUAUGCAAGUCUGUGAGUGCGUCUGAGGG: 5.99

Series 3
Target: ABI1, truncated, D143A, DHFR fusion (Arabidopsis thaliana)
Method: DHFR PCA, deep sequencing
Matrix: yeast
Setting: methotrexate growth selection, single substitutions
With: (+)-ABA 200 µM
Baseline: wild-type fitted maximum
Direction: higher = stronger binding
Quantity: relative binding score
Starting sequence: PYL1, truncated, DHFR fusion (Arabidopsis thaliana); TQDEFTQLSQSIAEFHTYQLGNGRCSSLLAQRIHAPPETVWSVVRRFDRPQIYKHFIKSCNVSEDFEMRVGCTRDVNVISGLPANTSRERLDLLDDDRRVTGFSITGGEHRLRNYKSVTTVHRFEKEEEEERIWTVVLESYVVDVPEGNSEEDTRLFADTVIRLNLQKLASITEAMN
A84D: 26.3%
L93V: 105%
V137T: 34.3%
A158P: 2.27%
E151S: 94.2%
T6C: 94.8%
E38N: 91.6%
C25Q: 58.2%
M68C: 98.3%
V76K: -8%
E130W: 92.4%

Series 4
Target: CCNA1, cyclin fold, Cln2 fusion (human)
Method: yeast growth competition, sequencing
Matrix: yeast
Setting: weak parent motif
Baseline: not given
Direction: higher = stronger binding
Quantity: normalised enrichment score
Starting sequence: GMNC docking peptide (human); KNAKRNLSSEFAN
KNAKRNLSSEFGN [A12G]: 0.226
KNAKRNLTSEFAN [S8T]: 0.132
KNAKRNFSSEFAN [L7F]: 0.16
KNAKRNLSSDFAN [E10D]: -0.128
KNAKENLSSEFAN [R5E]: 0.0461
KNNKRNLSSEFAN [A3N]: 0.0222
KTAKRNLSSEFAN [N2T]: 0.907
KNAKRNLSSESAN [F11S]: 0.524
KNAKRNLSSEFFN [A12F]: 0.276
KNAKRLLSSEFAN [N6L]: -0.111
KNAKRNLSSTFAN [E10T]: -0.000443
KNAKRNLSGEFAN [S9G]: 0.484
KSAKRNLSSEFAN [N2S]: 0.794
KNAKRNLSSKFAN [E10K]: 0.144
KNALRNLSSEFAN [K4L]: 0.61
KNAKSNLSSEFAN [R5S]: 0.267
KNAKRNNSSEFAN [L7N]: 0.229
KYAKRNLSSEFAN [N2Y]: 0.474

Series 5
Target: Ras GTPase-activating protein-binding protein 1, C-terminal RGG region (G3BP1, Homo sapiens, UniProt Q13283)
Chain of UniProt Q13283 (whole entry, looked up): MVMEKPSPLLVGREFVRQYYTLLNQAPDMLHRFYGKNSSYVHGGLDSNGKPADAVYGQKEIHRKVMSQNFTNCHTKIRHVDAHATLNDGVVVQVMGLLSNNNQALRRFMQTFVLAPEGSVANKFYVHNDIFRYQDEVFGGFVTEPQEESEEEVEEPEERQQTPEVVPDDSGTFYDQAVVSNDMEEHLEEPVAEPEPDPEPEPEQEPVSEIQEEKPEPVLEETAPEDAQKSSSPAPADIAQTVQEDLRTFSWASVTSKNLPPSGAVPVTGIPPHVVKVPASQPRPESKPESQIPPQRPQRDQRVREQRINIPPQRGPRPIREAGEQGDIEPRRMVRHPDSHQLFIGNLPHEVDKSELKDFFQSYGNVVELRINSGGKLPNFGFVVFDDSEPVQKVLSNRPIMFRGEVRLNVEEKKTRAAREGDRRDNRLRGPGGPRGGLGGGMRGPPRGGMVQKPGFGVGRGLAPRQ
Method: RNA Bind-n-Seq
Molecule type: RNA
Matrix: in vitro
Concentration: 1 µM
Setting: whole 134-nt RNA, ends assumed
With: 150 mM KCl
Baseline: input library
Direction: higher = stronger binding
Quantity: log2 enrichment
All sequences stand within: GGGAGUUCUACAGUCCGACGAUC … UGGAAUUCUCGGGUGUCAAGG
CCUCAAGUCCUGUGCUACACAUCGUAUGUACCGAAUCGGUGGGGUGGGGUGGAAAGUAUUAUGUUACGCCGUUCGGAUCUGCACUUCCAG: -0.339
AAGUCCUGUGCUACACAUCGUAUGUACCGAAUCGGGGUUUGGGGUGGGGUUUGGGGAAAGUAUUAUGUUACGCCGUUCGGAUCUGCACUU: 1.31
AGUCCUGUGCUACACAUCGUAUGUACCGAAUCGGGUUUUGGGGUUUUGGGUUUUGGGGAAAGUAUUAUGUUACGCCGUUCGGAUCUGCAC: 0.778
UAACUUUAGAGGAGGAUCUGAUCGAUAUGGCAGUGGACGUGGAUUUGGGGAUGGCUAUAAUGGGUAUGGAGGAGGACCUGGAGGUGGCAA: -1.31
CACAGACAACACGCACCCACACAGACACAGAGGGAAGGGGUUGGGAUGGGGACAGGGUGCACAGCACGGCGGGGUAGGACCCCAGCCCCU: -1.13
CAAGUCCUGUGCUACACAUCGUAUGUACCGAAUCGGGAAAAAAAGGGUGGGAGGGAAAGUAUUAUGUUACGCCGUUCGGAUCUGCACUUC: 1.36
UCAAGUCCUGUGCUACACAUCGUAUGUACCGAAUCGGUUUGGAAAAAGGUUUGGAAAGUAUUAUGUUACGCCGUUCGGAUCUGCACUUCC: -1.25

Series 6
Target: Histone acetyltransferase KAT6A, both winged helices, GST fusion (KAT6A, Homo sapiens, UniProt Q92794, residues 1-181)
Method: protein binding microarray
Molecule type: double-stranded DNA, one strand shown
Matrix: in vitro
Concentration: not given
Setting: 8-mer, flanks averaged, mean of 2 arrays, mostly near background
Baseline: not given
Direction: higher = stronger binding
Quantity: E-score
Construct (chain): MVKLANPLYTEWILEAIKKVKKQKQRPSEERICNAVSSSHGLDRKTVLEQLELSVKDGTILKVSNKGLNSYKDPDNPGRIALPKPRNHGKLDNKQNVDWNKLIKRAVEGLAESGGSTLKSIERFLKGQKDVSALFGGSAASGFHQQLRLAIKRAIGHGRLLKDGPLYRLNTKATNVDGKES
AGCCTTAG: -0.237
ATTCTCAC: -0.107
CCATTCAC: -0.0761
CGACCGAG: 0.139
AACATAGA: -0.0444
ATCGTACG: 0.103
GGAAGAAC: 0.0214
CCAATACA: -0.0881
CAACCGCA: 0.158
AGCGCGGC: 0.381
CATAGTAG: -0.0461
ACGGGGCC: 0.0712
ACCCACGA: -0.157
CAAAACGC: 0.181
ACTAAGCC: -0.0271

Series 7
Target: Interferon regulatory factor 3, full length, phosphomimetic (IRF3, Homo sapiens, UniProt Q14653, residues 1-427, S386D/S396D/S398D/S402D/T404D/S405D)
Method: protein-binding microarray
Molecule type: double-stranded DNA, one strand shown
Matrix: in vitro
Concentration: 2540 nM top
Setting: 60-bp whole probe
With: salmon DNA 0.4 mg/ml
Baseline: random background probes
Direction: higher = stronger binding
Quantity: fitted relative affinity
All sequences stand within: GCCTAGCAC … GTCTTGATTCGCTTGACGCTGCTG
Target sequence (chain): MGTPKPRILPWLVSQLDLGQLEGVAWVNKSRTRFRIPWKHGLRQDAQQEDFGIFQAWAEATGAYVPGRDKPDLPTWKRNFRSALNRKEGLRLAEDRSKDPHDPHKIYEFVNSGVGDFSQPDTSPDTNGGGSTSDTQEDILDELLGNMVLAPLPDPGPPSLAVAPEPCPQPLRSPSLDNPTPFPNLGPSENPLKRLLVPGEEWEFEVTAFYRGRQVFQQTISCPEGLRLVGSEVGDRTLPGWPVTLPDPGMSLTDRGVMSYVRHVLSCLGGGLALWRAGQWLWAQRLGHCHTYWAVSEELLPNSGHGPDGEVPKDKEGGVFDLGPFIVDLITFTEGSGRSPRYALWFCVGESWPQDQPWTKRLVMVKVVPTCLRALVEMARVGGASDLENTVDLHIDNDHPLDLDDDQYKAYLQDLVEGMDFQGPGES
TTAGGACTGCTTATCCTCTAGTGCTAG: -0.469 z-score
TTAGGTATCGGTTTCGGTCAGTGCTAG: 7.93 z-score
TTTGGACTGCTTCTCCTTTAGTGCTAG: -0.132 z-score
CCTGGTTTTACTTTCTATCTGTGCTAG: 3.57 z-score
GACGGTTTCGAGACTGGGGACGTGCTA: 3.87 z-score
TTAGATTTCCGGTTTCGATTAGTGCTA: 4.52 z-score
AACGATCTCAGTCTCGAGACGTGCTAG: 0.685 z-score
TTGGGTTTCCTTCTCCTTTAGTGCTAG: 8.28 z-score
TCACTTTCCAATTGTCCTACTGTGCTA: 6.43 z-score
GACGATATCGACACTGGGGACGTGCTA: -0.0707 z-score
TTAGCTTTCGGGTTTCGATTAGTGCTA: 3.3 z-score
AGTGTGGTCTGTTTCTGATAGTGCTAG: 1.6 z-score
TTAGGTATCCTTATCCTCTAGTGCTAG: 5.19 z-score
TTAGAACTGGGGACTGCATTAGTGCTA: -1.08 z-score
TTAGGTTCCGCTTTCGGTTAGTGCTAG: 4.91 z-score
GACGGTTTCGCGACTGGGGACGTGCTA: 1.96 z-score
TCATCTCTGTTTTTGCTACTGTGCTAG: 1.36 z-score
TCAAATATGAGACTGGGACTGTGCTAG: -0.304 z-score

Excerpt of the above (series 7):
TCATCTCTGTTTTTGCTACTGTGCTAG: 1.36 z-score
TCAAATATGAGACTGGGACTGTGCTAG: -0.304 z-score
TTAGGACTGCTTATCCTCTAGTGCTAG: -0.469 z-score
AACGATCTCAGTCTCGAGACGTGCTAG: 0.685 z-score
AGTGTGGTCTGTTTCTGATAGTGCTAG: 1.6 z-score
TTAGCTTTCGGGTTTCGATTAGTGCTA: 3.3 z-score
